Assay results pooled from the literature.
Compare with care: the assays were run in different laboratories. ± gives the spread as reported.
Cell line: A549

| Compound | assay | conditions | IC50 |
| --- | --- | --- | --- |
| CCCc1cc(O)nc(SCCOC(=O)[C@]2(C)CCC[C@]3(C)c4ccc(C(C)C)cc4CCC23)n1 (some centres unmarked) | cell growth or viability, MTT | 48 h | 11.9 µM |
| C=C1C(=O)[C@@]23CC[C@@H]4[C@](C)(COC(C)=O)CCC[C@@]4(C)[C@@H]2[C@@H](O)C[C@@H]1C3 (single isomer, unassigned) | cell growth or viability, MTT |  | 19 µM |
| Cc1ccc(C2=NN(C3=NC(=O)/C(=C/c4ccc(N(C)C)cc4)S3)C(c3ccc(F)cc3)C2)cc1 (centres unmarked) | cell growth or viability, MTT |  | 28.8 µM |
| O=C1CCCC2=C1C(c1cccs1)c1c([nH]c(=S)[nH]c1=S)O2 (centres unmarked) | cell growth or viability, MTT | 72 h | 15.6 µM |
| CC(C)=CCC1=C([O-])C(=O)c2ccccc2C1=O.CC(C)=CCC1=C([O-])C(=O)c2ccccc2C1=O.[Cu+2].c1ccc(-c2ccnc3c2ccc2c(-c4ccccc4)ccnc23)cc1 | cell viability, MTT | 24 h | 1.3 ± 0.3 µM |
| CCOC12C(O)C(OC)C3(O)CC(O)(C1C3OC(=O)c1ccccc1)C13C(OC)CC(O)C4(COC)CN(C)C1C2C(OC)C43 (centres unmarked) | cell growth or viability, MTT |  | 17.8 µM |
| COc1ccc(C2C([N+](=O)[O-])C(Cc3ccc(O)cc3)NC23C(=O)c2cccc4cccc3c24)cc1 (centres unmarked) | cell growth or viability, MTT | 24 h | 96.5 µM |
| Cc1ccc(S(=O)(=O)c2c(-c3ccccc3)c3c(C)c4cc(F)ccc4n3c3ccccc23)cc1 | cell growth or viability, MTT | 72 h | 16.4 µM |
| Cl.[Cl][Ru-]1[S+]=C(NC2CCCCC2)N[N+]1=Cc1ccc(N(c2ccccc2)c2ccccc2)cc1.c1ccccc1 | cytotoxicity, MTT | 24 h | 96.4 ± 5.6 µM |
| COc1cc(OC)c(C(C)=O)c(OC)c1 | cell growth or viability, MTT | 48 h | 70.3 µM |
| COc1c(O)cc2oc3cc4c(c(O)c3c(=O)c2c1CCC(C)C)CC(O)O4 (centres unmarked) | cell growth or viability | 48 h | 11.8 µM |
| Cc1nnc(NC(=O)CSc2nnc(-c3ccc4c(c3)OCCO4)o2)s1 | cell growth or viability, MTT | 36 h | 23.8 µM |
| CC(=O)O[C@@H]1CC[C@@]2(C)[C@@H](CC[C@]3(C)[C@@H]2C(=O)C=C2[C@@H]4[C@@H](C)[C@H](C)CC[C@]4(C)CC[C@]23C)[C@@]1(C)C(=O)NCCNC(=O)c1ccccc1 | cell growth or viability, MTT | 48 h | 13 µM |
| Cc1cc(C)c([N+]#[C][Pt-]([Cl])([Cl])=[C](Nc2ccc(CN[C](NC(C)(C)C)=[Au][Cl])cc2)Nc2c(C)cc(C)cc2C)c(C)c1 | cell growth or viability |  | 0.36 µM |
| CC1CCc2c(sc3ncnc(Nc4ccc(Nc5ncnc6sc7c(c56)CCC(C)C7)cc4)c23)C1 (centres unmarked) | cell growth or viability, MTT |  | 43.1 µM |
| COc1ccc(-c2coc3c(CC=C(C)C)c(O)c(CC=C(C)C)c(O)c3c2=O)cc1O | cell growth or viability, MTT |  | 105 µM |
| CC1=C(Cn2c3ccc(Cl)c(=O)c-3nc3ccccc32)CCC(C)(C)C1 | cell growth or viability, CCK-8 | 72 h | 0.75 µM |
| [Cl-].[Cl-].[Ru+2].c1ccc(-c2cc(-c3ccccn3)nc(-c3ccccn3)c2)cc1.c1ccc(-c2ccnc3c2ccc2c(-c4ccccc4)ccnc23)cc1 | cell growth or viability | 72 h, dark | 0.48 µM |
| O=C(Nc1ccc([N+](=O)[O-])cc1)C(c1ccc(C(F)(F)F)cc1)N(Cc1ccccc1)C(=O)c1ccc2ccccc2n1 (centres unmarked) |  | 48 h | 33.3 ± 2.1 µM |
| N#Cc1cccc(-c2ccc(=O)n(Cc3cccc(-c4ncc(OCC5CCN(CC(=O)NCCOCCNc6cccc7c6C(=O)N(C6CCC(=O)NC6=O)C7=O)CC5)cn4)c3)n2)c1 (centres unmarked) | cell growth or viability, CCK-8 | 72 h | 3.29 µM |
| C[C@]12CC/C(=N\OCCN3CCCC3)C=C1CCC1C2CC[C@]2(C)/C(=C/c3ccccn3)CCC12 (some centres unmarked) | cell growth or viability, MTT | 72 h | 2 µM |

| Compound | assay | conditions | IC50 |
| --- | --- | --- | --- |
| CNC(=O)c1c(C)oc2cc(Oc3ncnc4cc(OC)c(OCCCCCCC(=O)NO)cc34)ccc12 | cell growth, CCK-8 | 48 h | 4.56 ± 0.33 µM |
| Cc1ccc(C(C)C)cc1.[Cl-].[Cl-].[Fe+2].[Ru+2].c1cc[cH-]c1.c1ccc(P(=NCc2ccccn2)(c2ccccc2)[c-]2cccc2)cc1 | cell growth or viability, MTT | 24 h | > 125 µM |
| Cc1c(C)c(C)[c-](C)c1C.Fc1c[c-]c(-c2ccccn2)cc1.[Cl-].[Ir+3] | SRB | 24 h, 72 h recovery | 2.1 ± 0.3 µM |
| Cc1cc(C=O)cc(C)c1Oc1cc(Nc2ccc(C#N)cc2)nc2cnccc12 |  | 48 h | > 127 µM |
| COCCSc1nc(N)c2c(F)c(C#N)c(F)c(Cl)c2n1 | cell growth or viability, MTT | 96 h | 7.48 µM |
| CCN1CCC2(CC1)C/C(=N\NC(=O)Nc1ccc(OC)cc1)c1ccccc1O2 | cell growth or viability, MTT | 48 h | 24.1 µM |
| O=C(Cc1ccccc1)NC(=S)n1c(-c2ccccc2)nc2ccccc21 | cell growth or viability, MTT | 48 h | 15.6 µM |
| C[N+]1(C)CC[NH2+][Pt-2]1([OH])([Cl])([Cl])[O]C(=O)CCC(=O)OCCOC(=O)CCC(=O)[O][Pt-2]1([OH])([Cl])([Cl])[NH2+]CC[N+]1(C)C | cell growth or viability, MTT | 96 h | 356 µM |
| CC(C)c1cccc(C(C)C)c1[N+]#[C][Pt-]([Cl])([Cl])=[C](Nc1cccc(CN[C](NC(C)(C)C)=[Au][Cl])c1)Nc1c(C(C)C)cccc1C(C)C | cell growth or viability |  | > 100 µM |
| COc1ccc(C2=NN(C3=NC(=O)/C(=C/c4ccccc4)S3)C(c3ccc(F)cc3)C2)cc1 (centres unmarked) | cell growth |  | > 100 µM |
| COc1cc(-c2nc(N)[nH]c2C(=O)c2ccccc2)cc(OC)c1OC | cell growth or viability, SRB | 24 h | 0.183 µM |
| S=c1n(-c2ccccc2)c2c3ccccc3nc3[n+]2[n]1[Ir-3]12([S]3)([c]3ccccc3-c3sc4ccccc4[n+]31)[c]1ccccc1-c1sc3ccccc3[n+]12 | cell viability, MTT | dark | > 50 µM |
| CC(=O)[C@@H]1CCCN1C(=O)[C@@H]1CCCN1C(=O)[C@H](Cc1ccccc1)NC(=O)OC(C)(C)C | cell growth or viability, SRB |  | 5 µM |
| CC(=O)[O-].O.O.O.O.[Ni+2].[O-]c1ccc(Br)cc1C=NCCN1CCOCC1 | cell viability, MTT | 72 h | 24.5 µg/mL |
| COc1cc(N(C)CCN(C)C)c(NC(=O)/C=C/c2ccc(C(F)(F)F)cc2)cc1Nc1nccc(-c2cn(C)c3ccccc23)n1 | cell growth or viability, MTT | 72 h | 0.207 µM |
| CC(C)c1cccc(C(C)C)c1[N+]#[C][Pt-]([Cl])([Cl])=[C](Nc1ccc(CN[C](NC(C)(C)C)=[Au][Cl])cc1)Nc1c(C(C)C)cccc1C(C)C | cell growth or viability |  | > 100 µM |
| CCN(CC)CCN1C(=O)c2ccc3c4cccc5c(NCCN)ccc(c6ccc(c2c36)C1=O)c54 | cell growth or viability, SRB | 72 h | 5.6 µM |
| CC1=CC(C)=[N+]2C1=C(CO)c1c(C)cc(C)n1[B-]2(C)C | cell growth or viability, resazurin | dark | > 100 µM |
| CC(=O)O[C@@H]1CC[C@@]2(C)[C@@H](CC[C@]3(C)[C@@H]2C(=O)C=C2[C@@H]4[C@@H](C)[C@H](C)CC[C@]4(C)CC[C@]23C)[C@@]1(C)C(=O)NCCNC(=O)C1CCCCC1 | cell growth or viability, MTT | 48 h | 10.9 µM |
| O=C(N=P12CN3CN(CN(C3)C1)C2)c1cccc[c]1[Au]([Cl])[Cl] | cell growth or viability, MTT | 24 h | > 125 µM |
